Results gathered from unrelated publications.
Each numbered part is a random draw from the data of one study; scales do not carry over between parts. Positions count from the first letter of the parent shown.

Sample 1
Target: Histone acetyltransferase KAT6A, winged helix 2, GST fusion (KAT6A, Homo sapiens, UniProt Q92794, residues 85-181)
Technique: protein binding microarray
Molecule type: double-stranded DNA, one strand shown
Matrix: in vitro
Concentration: not given
Setting: 8-mer, flanks averaged, mean of 2 arrays, mostly near background
Baseline: not given
Direction: higher = stronger binding
Construct (chain): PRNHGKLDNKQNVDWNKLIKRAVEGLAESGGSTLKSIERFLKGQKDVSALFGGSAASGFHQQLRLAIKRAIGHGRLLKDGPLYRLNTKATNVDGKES
Oligonucleotide | E-score
ACCTTTTG | -0.0274
AGAACCTA | -0.217
GCGGTCAC | 0.0468
CCGACGAG | 0.157
ATCCGAGA | 0.0888
CTTGGCAC | 0.138
CAACAATA | -0.0325
GCGGGGAC | 0.15
GCTACACA | -0.124
CTAGATAG | -0.0333
CCCCAGGG | 0.0495
ATTGCATC | 0.11
AAAGAGAT | -0.0828
CCAGTTAG | -0.078
CGTAGGCC | -0.0278
CATGGGGA | 0.025

Sample 2
Target: CCNB3, cyclin fold, Cln2 fusion (human)
Technique: yeast growth competition, sequencing
Matrix: yeast
Setting: weak parent motif
Baseline: not given
Direction: higher = stronger binding
Starting sequence: FOXM1 docking peptide (human); PHLARPIKVESPP
Variant | normalised enrichment score
PALARPIKVESPP [H2A] | -0.00804
PHLAAPIKVESPP [R5A] | -0.249
PHLARPIKVESAP [P12A] | -0.73
PHLARPIKVASPP [E10A] | -0.241
PHLARAIKVESPP [P6A] | -0.2
PHLARPIKAESPP [V9A] | -0.0197

Sample 3
Target: Prothrombin, mature alpha-thrombin (F2, Homo sapiens, UniProt P00734)
Technique: aptamer microarray, sandwich
Molecule type: DNA with 2'F-ANA
Matrix: in vitro
Concentration: 200 nM
Setting: whole 15-mer aptamer, many near background
Together with: Cy3 exosite-II aptamer, 400 nM
Direction: higher = stronger binding
Oligonucleotide: GGTTGGTGTGGTTGG
Modification | mean fluorescence intensity
2'F-ANA at 3 4 6 7 8 13 15 | 527 a.u.
2'F-ANA at 1 2 3 7 8 9 12 13 | 374 a.u.
2'F-ANA at 3 4 5 7 8 9 11 13 | 73.1 a.u.
2'F-ANA at 1 4 5 8 9 10 12 13 15 | 79.5 a.u.
2'F-ANA at 2 3 5 8 14 15 | 57.9 a.u.
2'F-ANA at 3 4 6 8 9 12 15 | 848 a.u.
2'F-ANA at 1 3 10 11 12 13 15 | 113 a.u.
2'F-ANA at 5 8 9 10 | 92.2 a.u.
2'F-ANA at 1 6 8 14 15 | 66.8 a.u.
2'F-ANA at 1 4 5 6 8 10 12 13 | 108 a.u.
2'F-ANA at 4 5 6 7 8 10 11 14 | 98.2 a.u.
2'F-ANA at 4 5 7 8 10 11 14 15 | 45.8 a.u.
2'F-ANA at 4 5 7 8 9 10 12 13 14 15 | 67.9 a.u.
2'F-ANA at 2 5 11 12 14 15 | 43.8 a.u.
2'F-ANA at 1 2 3 4 5 6 7 9 | 63.8 a.u.
2'F-ANA at 2 3 5 6 8 10 11 14 15 | 63.9 a.u.
2'F-ANA at 1 2 4 5 6 9 11 14 15 | 65.6 a.u.
2'F-ANA at 1 2 3 8 9 10 11 12 13 15 | 85.8 a.u.
2'F-ANA at 3 6 7 8 9 14 15 | 561 a.u.
2'F-ANA at 2 3 4 11 15 | 545 a.u.
2'F-ANA at 1 4 6 7 8 9 10 11 12 14 15 | 50.6 a.u.
2'F-ANA at 2 5 8 10 11 14 | 46.4 a.u.

Sample 4
Target: Interferon regulatory factor 7, full length, phosphomimetic (IRF7, Homo sapiens, UniProt Q92985, residues 1-503, S101K/S471D/S472D/S475D/S476D/S477D/S483D/S484D/S487D)
UniProt Q92985, sequence (whole entry, unmodified, looked up): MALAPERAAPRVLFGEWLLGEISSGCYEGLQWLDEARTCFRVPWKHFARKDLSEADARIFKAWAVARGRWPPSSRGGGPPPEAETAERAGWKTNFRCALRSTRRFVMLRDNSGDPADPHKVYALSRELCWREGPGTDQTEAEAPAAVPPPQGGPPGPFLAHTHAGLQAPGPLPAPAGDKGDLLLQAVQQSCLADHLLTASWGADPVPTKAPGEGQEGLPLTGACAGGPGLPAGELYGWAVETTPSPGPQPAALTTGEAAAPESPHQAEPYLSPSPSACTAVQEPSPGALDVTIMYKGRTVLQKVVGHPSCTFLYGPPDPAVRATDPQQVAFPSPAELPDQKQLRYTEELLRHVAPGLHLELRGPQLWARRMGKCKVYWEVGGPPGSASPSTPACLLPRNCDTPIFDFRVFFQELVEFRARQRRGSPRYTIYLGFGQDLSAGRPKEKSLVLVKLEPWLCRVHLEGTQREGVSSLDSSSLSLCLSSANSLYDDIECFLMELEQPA
Technique: protein-binding microarray
Molecule type: double-stranded DNA, one strand shown
Matrix: in vitro
Concentration: 250 nM
Setting: 60-bp whole probe
Together with: salmon DNA 0.4 mg/ml
Baseline: random background probes
Direction: higher = stronger binding
All sequences stand within: GCCTAGCAC … GTCTTGATTCGCTTGACGCTGCTG
Oligonucleotide | log fluorescence [z-score]
TCAGCTTTAGTCATTCACACTGTGCTA | -0.481
ATATATATATTGTTAGTGTAGTGCTAG | 0.583
TTTGGTTTCGGGTTTCGGTTAGTGCTA | 13.2
TCAAGCCTCCATTTTTAACTGTGCTAG | -0.296
AGTGGGGAGGGAGAGAATCCGTGCTAG | 0.143
GACGATTTCAGCATCGAGACGTGCTAG | 0.138
CAAACACTAGTTTTTACTTTGTGCTAG | 0.394
TCTGATTTCTCAAACAGCTCGTGCTAG | 0.576
TCATCTTCAGCACTCGGACTGTGCTAG | 0.357
TTAGATTTCGGGACTGGATTTGTGCTA | 0.315
GACAGACTGCTTATCCTGACGTGCTAG | -0.149
GACGATATCAGAGTGGAGACGTGCTAG | -0.434
TCACCTCTCCTCTCAGGAACTGTGCTA | -0.249
TTAGATATCGGGCCTGGATTAGTGCTA | 0.0259
TCATGTCTGGGCTTTTTCACTGTGCTA | -0.837
GACGGAATCGGTATCGGGACGTGCTAG | 0.461
TTAGAACTGAGTTTCGATAAGTGCTAG | 3.08
TTAAGTATCGACACTGGGTTAGTGCTA | -0.0521
GCCGGACTGGGTCTCGGGACGTGCTAG | -0.404
TCATGTTGTTTTTTGGTACTGTGCTAG | 0.649
TATTTTCCTTTAAACTTTTAGTGCTAG | 3.97
ACGAGTTTCTATTTTCTGAAGTGCTAG | 8.27
TCATTTTTTTCTAACTAACTGTGCTAG | 0.906
GAAATTTTCCCCTACTGTATGTGCTAG | 1.29
ACCGATTTCCTTCACCCACTGTGCTAG | 1.21

Excerpt of the above (sample 3):
Modification | mean fluorescence intensity
2'F-ANA at 2 3 5 6 8 10 11 14 15 | 63.9 a.u.
2'F-ANA at 1 3 10 11 12 13 15 | 113 a.u.
2'F-ANA at 2 5 11 12 14 15 | 43.8 a.u.
2'F-ANA at 1 4 5 8 9 10 12 13 15 | 79.5 a.u.
2'F-ANA at 1 4 5 6 8 10 12 13 | 108 a.u.
2'F-ANA at 1 2 3 7 8 9 12 13 | 374 a.u.
2'F-ANA at 3 4 6 8 9 12 15 | 848 a.u.
2'F-ANA at 2 3 4 11 15 | 545 a.u.
2'F-ANA at 4 5 6 7 8 10 11 14 | 98.2 a.u.
2'F-ANA at 1 2 4 5 6 9 11 14 15 | 65.6 a.u.
2'F-ANA at 1 4 6 7 8 9 10 11 12 14 15 | 50.6 a.u.
